Measurements gathered from unrelated publications.
Every numbered part comes from another study and shows a few of its results, in no order.

Sample 1 — technique: protein binding microarray; molecule type: double-stranded DNA, one strand shown; sample: in vitro; concentration: not given; relative to: not given; direction: higher = stronger binding
Target: Histone acetyltransferase KAT6A, winged helix 1, GST fusion (KAT6A, Homo sapiens, UniProt Q92794, residues 1-85)
Notes: 8-mer, flanks averaged, mean of 2 arrays, mostly near background
Residues (chain): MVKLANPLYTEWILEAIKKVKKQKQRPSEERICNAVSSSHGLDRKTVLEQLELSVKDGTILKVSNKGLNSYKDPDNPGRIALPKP
For `GGCAAGAC`, the E-score was 0.144.
For `ACTGATGG`, the E-score was -0.0504.
`GCCGTGGA` has an E-score of 0.365.
`CCCGCTGC` has an E-score of 0.298.
`GATTTTCA` has an E-score of -0.223.
The E-score of `CGCTGCAA` is reported as 0.204.
For `TAGCCGGA`, the E-score was 0.236.
`GAGGGGCC` gave an E-score of -0.0508.
With `ACGCGTAG` the E-score was 0.359.
For `ACTCGAGA`, the E-score was -0.0777.
For `ACCGCTAC`, the E-score was 0.33.
`GAGACGAC` has an E-score of -0.0492.
`GGCCTTAA` gave an E-score of -0.0754.
The E-score of `CTTCGCTC` is reported as 0.153.
For `CAGGTTGG`, the E-score was -0.219.
`ACCAGTGC` has an E-score of -0.0249.
`CCTTGTCA` gave an E-score of -0.063.
For `CCCAGGCA`, the E-score was -0.25.
The E-score of `AATTGAGA` is reported as -0.00133.
The E-score of `AGGCAGAT` is reported as -0.155.
For `ACCCTACG`, the E-score was 0.0444.
The E-score of `GAGCCTGC` is reported as -0.00283.
With `CGGTAGTA` the E-score was 0.122.
With `GATAGATA` the E-score was -0.131.

Sample 2 — technique: universal PBM; molecule type: double-stranded DNA, one strand shown; sample: in vitro; concentration: not given; direction: higher = stronger binding
Target: Sal-like protein 4, full length isoform B (SALL4, Homo sapiens, UniProt Q9UJQ4-2, residues 1-616)
Notes: 8-mer, flanks averaged, mean of replicates
`CATAAGTC` gave an E-score of 0.188.
With `GCTCAGAC` the E-score was -0.195.
With `CTATGAAC` the E-score was 0.177.
For `AGAGTACC`, the E-score was -0.0448.
For `CAGGCGGC`, the E-score was -0.322.
The E-score of `CAGCGCGA` is reported as -0.211.
For `ACCGTGCT`, the E-score was -0.271.
With `TTAGGAAA` the E-score was 0.172.
The E-score of `GGAAGTAA` is reported as 0.1.
With `GCACATGA` the E-score was 0.096.
For `AACCTGAT`, the E-score was 0.126.
With `CACGAAGG` the E-score was -0.155.
`GTACCGAC` gave an E-score of -0.176.
With `AAAAACAT` the E-score was 0.257.
`ACAATAGC` gave an E-score of 0.157.
The E-score of `CGCTACCG` is reported as -0.214.
`AGAAGCAA` gave an E-score of 0.092.
With `CACATCAG` the E-score was -0.152.
For `AAATAGTT`, the E-score was 0.229.
The E-score of `GGTCTGTA` is reported as -0.134.
`CTGGTCCC` has an E-score of -0.276.
The E-score of `GGATTGCC` is reported as -0.236.
With `ATCACTGC` the E-score was 0.0113.
`ACTGACCC` has an E-score of -0.165.
For `ACCCGGAT`, the E-score was -0.29.

Sample 3 — technique: protein-binding microarray; molecule type: double-stranded DNA, one strand shown; sample: in vitro; concentration: 250 nM; notes: 60-bp whole probe; together with: salmon DNA 0.4 mg/ml; relative to: random background probes; direction: higher = stronger binding; all sequences stand within: GCCTAGCAC … GTCTTGATTCGCTTGACGCTGCTG
Target: Interferon regulatory factor 5, full length, phosphomimetic (IRF5, Homo sapiens, UniProt Q13568-2, residues 1-514, K96S/S451D/S453D/S456D/S462D)
For `GACGAACTGGGGTTTCGAGACGTGCTA`, the log fluorescence was 1.13 z-score.
For `GACGATATCGGGAATGGAGACGTGCTA`, the log fluorescence was 1.16 z-score.
`CCTCAGCTCCCTTTCTCTCTGTGCTAG` has a log fluorescence of 0.231 z-score.
For `TGGTAATTCTTTGCTCATTTTGTGCTA`, the log fluorescence was 0.469 z-score.
`TTAGAACTGAGACTGAATTAGTGCTAG` gave a log fluorescence of 0.0497 z-score.
`GACGAACTAAGTCTCGAGACGTGCTAG` gave a log fluorescence of -0.108 z-score.
`TCACAACTTTTTTTAATACTGTGCTAG` has a log fluorescence of 1.01 z-score.
For `TTAGGTTTCGCTTTCGGTTAGTGCTAG`, the log fluorescence was 11.8 z-score.
`TGCTTCCTCTTTCTCTGCTAGTGCTAG` gave a log fluorescence of 1.6 z-score.
`GAGGATATCAGTTTCGAGACGTGCTAG` gave a log fluorescence of 5.98 z-score.
`CTGATTTTGCTTTCATTTATGTGCTAG` gave a log fluorescence of 4.38 z-score.
`GACGGTCTCGGACCGGGGACGTGCTAG` has a log fluorescence of -0.486 z-score.
For `TTTCATTTATTTACTCTCTACGTGCTA`, the log fluorescence was 8.31 z-score.
For `CTAGGACTGCTACTGCTTTAGTGCTAG`, the log fluorescence was -0.52 z-score.
The log fluorescence of `TCACTTTGCCTTTTGCTACTGTGCTAG` is reported as 0.75 z-score.
`ACTCGTGTTTTTCTCCTATTGTGCTAG` has a log fluorescence of 0.762 z-score.
`TTAGCACTGAGTTTCGATTAGTGCTAG` gave a log fluorescence of 8.89 z-score.
For `CTAGGTCTCGGACTGGGTTAGTGCTAG`, the log fluorescence was -0.475 z-score.
For `CTTACTTTATGTAGGAAGTCGTGCTAG`, the log fluorescence was 0.223 z-score.

Sample 4 — technique: RNA Bind-n-Seq; molecule type: RNA; sample: in vitro; concentration: not given; relative to: input RNA pool; direction: higher = stronger binding
Target: RING finger protein unkempt homolog, zinc fingers 1-6, GST-SBP tag (UNK, Homo sapiens, UniProt Q9C0B0, residues 30-357)
UniProt Q9C0B0, sequence (30-357, looked up): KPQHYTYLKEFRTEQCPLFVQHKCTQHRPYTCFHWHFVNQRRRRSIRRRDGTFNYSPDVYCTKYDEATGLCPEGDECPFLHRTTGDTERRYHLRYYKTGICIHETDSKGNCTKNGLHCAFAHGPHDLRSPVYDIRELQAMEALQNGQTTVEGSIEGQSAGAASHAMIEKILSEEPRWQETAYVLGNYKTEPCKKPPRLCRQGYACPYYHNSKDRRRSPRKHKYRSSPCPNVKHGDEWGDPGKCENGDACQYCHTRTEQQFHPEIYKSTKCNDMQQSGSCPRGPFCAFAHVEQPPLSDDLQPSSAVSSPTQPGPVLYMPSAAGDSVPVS
Notes: RNA with constant flanks, human and mouse sites, ends assumed
The bound/input enrichment of `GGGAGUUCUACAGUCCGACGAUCAAUGAACACUUCAAUGUGUUCCUCACUGCUAAGGACCUGAAUGCCUACAAGAAGCAAGGGAUAGCAUUGCUGAGCAGAGUGGGUGAGUCAGUCAAGCACGUCACCGGAGGCUAUAAGCUGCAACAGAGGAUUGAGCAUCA` is reported as 0.138 ratio.
For `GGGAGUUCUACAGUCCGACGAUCCUUCAGAAGAGUAAUGGUGUACUUCCUGAAUUAUUUCAGUGUCAUGGUACUGCAGAUGAGUUAGUUCUUCAUUCUUGGGCAGAAGAGACAAACUCAAUGUUAAAAUCUCUAGGAGUGACCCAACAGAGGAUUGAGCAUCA`, the bound/input enrichment was 0.172 ratio.
For `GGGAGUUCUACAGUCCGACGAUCUCCCUCUCCACUCCCAUCUUCAGGCCAGCAGUAUCUGUUGGAAAUGUUGGCCAGCUUGCAAUGGAUCUGAUUAUUUCUACACUGAAUAUGUCUAAGAUUGGUUACUUCUAUACCGAUUGUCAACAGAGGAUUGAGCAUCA`, the bound/input enrichment was 0.311 ratio.
With `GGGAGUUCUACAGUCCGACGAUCACACCCCAGUGAGCAGUGAGUGAUUUUCCUUUAGUCACACGGUGGUUUUGCUUUGUAGUUAGUAGGUGAUGGAUAUAUAGGUCUUCAUCCUCCUUUAGGCUGUUUCUCUUCUUGUGUUUGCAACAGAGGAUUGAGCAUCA` the bound/input enrichment was 3.92 ratio.
The bound/input enrichment of `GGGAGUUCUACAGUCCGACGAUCGUCACAACAACCUUGAAAGUAGUAGAAAAAGGAUUCAUCAACAUCUCCCCUGUGAAGAACACUACAGUAUUUGUAACCGAUGGAGAAAACGUAGAUUUGGUUGUUGAAUACGAGGCCUACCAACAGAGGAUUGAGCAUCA` is reported as 0.681 ratio.
`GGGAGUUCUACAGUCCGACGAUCUGCAACCAGCCUCAGGAUGCCAUUAAAUGCUACUUAAAUGCAACUAGAAGCAAAAGUUGUAGUAAUACCUCUGCACUUGCAGCACGAAUUAAGUAUUUACAGGCUCAGUUGUGUAACCUUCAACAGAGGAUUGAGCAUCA` gave a bound/input enrichment of 0.23 ratio.
`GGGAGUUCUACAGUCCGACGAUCGCAGAUUAUAAUGGCAGACUGGCGGCAGAAAUAGAUGAUAGAAAGCAACUCACCCGAAUGUUAGCAGAUUUUCUUCGUUGUCAAAAGGAAGCCCUUGCAGAGAAAGAACAUAAAUUGGAACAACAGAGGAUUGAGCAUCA` has a bound/input enrichment of 1.23 ratio.
For `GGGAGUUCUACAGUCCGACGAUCUUCUUUGGCGGUGGAUUUCCUUCAGGUAGUGUACAUUCAUUUUCAAAUGGCCGGGCUGCUUACAGCCAUCAACAUCAGCACCGACACAGUGGGCAUGAAAGAGAAGAAGAAAGAGCGGAUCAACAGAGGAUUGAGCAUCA`, the bound/input enrichment was 0.961 ratio.

A few entries again (sample 3):
For `CTTACTTTATGTAGGAAGTCGTGCTAG`, the log fluorescence was 0.223 z-score.
For `GACGATATCGGGAATGGAGACGTGCTA`, the log fluorescence was 1.16 z-score.
The log fluorescence of `TCACTTTGCCTTTTGCTACTGTGCTAG` is reported as 0.75 z-score.
`TCACAACTTTTTTTAATACTGTGCTAG` has a log fluorescence of 1.01 z-score.
`TTAGCACTGAGTTTCGATTAGTGCTAG` gave a log fluorescence of 8.89 z-score.
For `GACGAACTGGGGTTTCGAGACGTGCTA`, the log fluorescence was 1.13 z-score.
`GAGGATATCAGTTTCGAGACGTGCTAG` gave a log fluorescence of 5.98 z-score.
`CTGATTTTGCTTTCATTTATGTGCTAG` gave a log fluorescence of 4.38 z-score.
For `CTAGGACTGCTACTGCTTTAGTGCTAG`, the log fluorescence was -0.52 z-score.
